Measured values gathered from unrelated publications.
Each numbered part is a random draw from the data of one study; scales do not carry over between parts.
UniProt P10721, sequence (whole entry, unmodified, looked up): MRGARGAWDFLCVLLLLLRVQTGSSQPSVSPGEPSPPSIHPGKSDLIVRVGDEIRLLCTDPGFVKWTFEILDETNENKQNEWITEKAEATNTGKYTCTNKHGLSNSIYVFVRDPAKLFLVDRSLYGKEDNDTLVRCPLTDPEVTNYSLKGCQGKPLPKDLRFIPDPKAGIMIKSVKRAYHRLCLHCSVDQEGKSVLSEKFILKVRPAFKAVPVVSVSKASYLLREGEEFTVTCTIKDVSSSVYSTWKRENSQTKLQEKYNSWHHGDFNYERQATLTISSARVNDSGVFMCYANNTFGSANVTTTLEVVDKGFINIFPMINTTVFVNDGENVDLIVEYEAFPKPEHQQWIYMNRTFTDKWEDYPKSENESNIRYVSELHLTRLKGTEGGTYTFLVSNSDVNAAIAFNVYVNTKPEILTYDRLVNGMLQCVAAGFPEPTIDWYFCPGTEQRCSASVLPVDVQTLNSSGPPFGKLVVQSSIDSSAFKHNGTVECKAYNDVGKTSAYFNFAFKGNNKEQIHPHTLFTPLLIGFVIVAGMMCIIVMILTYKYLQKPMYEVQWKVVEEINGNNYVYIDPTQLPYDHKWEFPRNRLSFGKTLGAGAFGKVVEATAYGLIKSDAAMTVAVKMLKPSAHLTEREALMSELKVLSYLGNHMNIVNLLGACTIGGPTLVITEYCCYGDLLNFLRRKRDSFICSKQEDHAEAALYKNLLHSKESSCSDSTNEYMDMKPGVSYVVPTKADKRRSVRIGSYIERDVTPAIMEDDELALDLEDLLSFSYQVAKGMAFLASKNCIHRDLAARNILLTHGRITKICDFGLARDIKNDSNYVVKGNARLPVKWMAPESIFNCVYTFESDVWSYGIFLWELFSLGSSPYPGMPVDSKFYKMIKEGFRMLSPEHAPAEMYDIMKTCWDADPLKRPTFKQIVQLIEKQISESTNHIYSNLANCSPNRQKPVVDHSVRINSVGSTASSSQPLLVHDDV
UniProt Q13177, sequence (whole entry, looked up): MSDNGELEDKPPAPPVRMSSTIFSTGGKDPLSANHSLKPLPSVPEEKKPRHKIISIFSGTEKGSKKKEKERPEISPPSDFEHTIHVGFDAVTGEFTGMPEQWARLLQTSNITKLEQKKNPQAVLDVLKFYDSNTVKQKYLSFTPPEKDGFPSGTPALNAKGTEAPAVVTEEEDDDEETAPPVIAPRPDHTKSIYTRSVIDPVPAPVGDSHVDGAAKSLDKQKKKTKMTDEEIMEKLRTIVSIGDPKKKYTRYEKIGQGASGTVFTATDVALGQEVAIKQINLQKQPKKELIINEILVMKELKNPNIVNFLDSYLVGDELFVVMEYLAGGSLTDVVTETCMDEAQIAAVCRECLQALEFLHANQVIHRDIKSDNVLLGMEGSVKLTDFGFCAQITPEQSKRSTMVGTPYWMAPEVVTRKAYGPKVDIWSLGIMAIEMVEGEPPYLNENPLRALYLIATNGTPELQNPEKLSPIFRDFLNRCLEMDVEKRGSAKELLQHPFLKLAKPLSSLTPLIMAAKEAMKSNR
UniProt Q9P289, sequence (whole entry, looked up): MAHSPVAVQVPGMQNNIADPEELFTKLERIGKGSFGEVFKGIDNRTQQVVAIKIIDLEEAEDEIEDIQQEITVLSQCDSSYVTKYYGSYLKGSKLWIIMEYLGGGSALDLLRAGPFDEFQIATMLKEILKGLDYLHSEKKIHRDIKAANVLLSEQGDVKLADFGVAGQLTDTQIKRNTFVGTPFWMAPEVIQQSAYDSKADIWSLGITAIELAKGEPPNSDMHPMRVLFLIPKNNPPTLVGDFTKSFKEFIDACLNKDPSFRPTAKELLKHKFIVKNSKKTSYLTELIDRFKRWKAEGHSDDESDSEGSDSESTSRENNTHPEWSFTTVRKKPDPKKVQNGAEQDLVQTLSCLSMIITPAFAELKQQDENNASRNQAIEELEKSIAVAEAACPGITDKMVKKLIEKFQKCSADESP
UniProt Q13546, sequence (whole entry, looked up): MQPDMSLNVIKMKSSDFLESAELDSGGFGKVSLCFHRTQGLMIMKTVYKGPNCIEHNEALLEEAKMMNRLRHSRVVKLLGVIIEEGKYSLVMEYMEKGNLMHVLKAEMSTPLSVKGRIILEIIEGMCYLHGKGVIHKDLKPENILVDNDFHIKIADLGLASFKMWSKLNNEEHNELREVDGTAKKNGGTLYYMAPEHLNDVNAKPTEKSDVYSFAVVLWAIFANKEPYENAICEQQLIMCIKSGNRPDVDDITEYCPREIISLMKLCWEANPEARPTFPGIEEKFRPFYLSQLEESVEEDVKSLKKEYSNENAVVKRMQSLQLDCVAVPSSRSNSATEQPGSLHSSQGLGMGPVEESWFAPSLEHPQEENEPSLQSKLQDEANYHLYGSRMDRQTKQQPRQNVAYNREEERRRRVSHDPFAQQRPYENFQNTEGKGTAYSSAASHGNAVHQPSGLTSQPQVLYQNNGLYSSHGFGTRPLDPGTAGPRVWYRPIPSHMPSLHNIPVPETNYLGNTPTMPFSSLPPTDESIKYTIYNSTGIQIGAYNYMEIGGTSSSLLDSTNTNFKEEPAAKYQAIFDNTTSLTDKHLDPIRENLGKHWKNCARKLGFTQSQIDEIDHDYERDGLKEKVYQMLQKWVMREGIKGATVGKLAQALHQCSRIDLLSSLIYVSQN
UniProt P21127, sequence (whole entry, looked up): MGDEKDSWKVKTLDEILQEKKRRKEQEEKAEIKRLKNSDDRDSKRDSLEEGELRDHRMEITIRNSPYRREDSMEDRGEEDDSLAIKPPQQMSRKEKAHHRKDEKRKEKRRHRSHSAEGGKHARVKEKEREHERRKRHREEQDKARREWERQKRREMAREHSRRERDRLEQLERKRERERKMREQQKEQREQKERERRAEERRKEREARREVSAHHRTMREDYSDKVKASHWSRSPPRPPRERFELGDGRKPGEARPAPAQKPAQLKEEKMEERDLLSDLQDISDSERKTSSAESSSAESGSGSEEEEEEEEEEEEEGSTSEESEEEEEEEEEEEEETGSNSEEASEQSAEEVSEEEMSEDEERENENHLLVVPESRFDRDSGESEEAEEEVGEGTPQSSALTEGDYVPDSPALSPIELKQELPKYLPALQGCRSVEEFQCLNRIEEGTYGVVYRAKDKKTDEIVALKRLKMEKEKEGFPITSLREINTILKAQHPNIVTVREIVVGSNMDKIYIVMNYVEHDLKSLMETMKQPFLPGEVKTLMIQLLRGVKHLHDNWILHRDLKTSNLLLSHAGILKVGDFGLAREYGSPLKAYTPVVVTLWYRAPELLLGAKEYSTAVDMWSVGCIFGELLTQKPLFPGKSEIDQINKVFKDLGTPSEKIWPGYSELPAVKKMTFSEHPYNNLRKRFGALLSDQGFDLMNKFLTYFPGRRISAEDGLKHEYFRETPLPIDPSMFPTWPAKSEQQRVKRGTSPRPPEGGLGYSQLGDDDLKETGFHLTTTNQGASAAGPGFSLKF

Study 1 — effect on: enzyme activity; action: inhibitor; tested at: 0.5 µM; relative to: control; endpoint: remaining activity
Target: Platelet-derived growth factor receptor alpha (PDGFRA, Homo sapiens, UniProt P16234)
UniProt P16234, sequence (whole entry, looked up): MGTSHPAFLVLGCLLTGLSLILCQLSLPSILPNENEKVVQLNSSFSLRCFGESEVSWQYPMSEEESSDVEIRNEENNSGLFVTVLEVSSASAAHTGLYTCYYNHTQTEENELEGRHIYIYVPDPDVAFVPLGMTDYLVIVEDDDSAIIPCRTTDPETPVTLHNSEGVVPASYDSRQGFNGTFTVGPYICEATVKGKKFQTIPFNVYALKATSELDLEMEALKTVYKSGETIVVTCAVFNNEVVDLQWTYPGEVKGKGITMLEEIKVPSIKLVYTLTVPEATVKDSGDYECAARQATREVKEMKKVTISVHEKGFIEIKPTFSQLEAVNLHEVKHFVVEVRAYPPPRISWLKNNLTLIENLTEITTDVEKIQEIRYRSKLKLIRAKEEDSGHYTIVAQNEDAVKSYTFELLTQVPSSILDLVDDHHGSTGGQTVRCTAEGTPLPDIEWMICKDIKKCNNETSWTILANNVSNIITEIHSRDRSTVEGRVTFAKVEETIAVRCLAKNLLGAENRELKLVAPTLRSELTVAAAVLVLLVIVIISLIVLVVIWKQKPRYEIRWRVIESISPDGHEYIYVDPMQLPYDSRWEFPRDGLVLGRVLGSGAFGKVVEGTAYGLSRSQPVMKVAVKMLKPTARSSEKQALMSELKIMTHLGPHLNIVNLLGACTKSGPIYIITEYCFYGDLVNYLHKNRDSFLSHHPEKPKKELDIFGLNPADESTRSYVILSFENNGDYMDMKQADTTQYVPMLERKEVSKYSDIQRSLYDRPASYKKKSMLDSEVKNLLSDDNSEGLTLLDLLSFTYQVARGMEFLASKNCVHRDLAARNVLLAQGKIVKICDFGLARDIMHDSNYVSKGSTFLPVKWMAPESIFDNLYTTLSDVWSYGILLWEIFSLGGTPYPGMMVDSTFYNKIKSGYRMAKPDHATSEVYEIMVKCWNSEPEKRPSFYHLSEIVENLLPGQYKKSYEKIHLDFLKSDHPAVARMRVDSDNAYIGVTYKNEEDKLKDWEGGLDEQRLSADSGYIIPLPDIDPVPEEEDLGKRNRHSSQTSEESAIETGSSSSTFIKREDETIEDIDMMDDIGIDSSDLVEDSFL
NC(=O)c1ccc(-c2nc(-c3ccc4c(c3)OCCO4)c(-c3ccccn3)[nH]2)cc1: 95.8%
CCCCc1c(-c2ccc(O)cc2)[nH]c2nccnc12: 95.1%
C[C@@H](N)[C@H]1CC[C@H](C(=O)Nc2ccncc2)CC1: 87.2%
c1cc(-c2cnn3cc(-c4ccc(OCCN5CCCCC5)cc4)cnc23)ccn1: 3.7%
CCN(CC)CCCCN1c2ccccc2Oc2ccc(Cl)cc21: 102%
Clc1ccc(Nc2nnc(Cc3ccncc3)c3ccccc23)cc1: 33.3%
N#C/C(=C(/N)SC1C=CC=CC1)c1cccc(C(O)c2ccncc2)c1 (stereo not shown): 107%
O=C1c2ccccc2-c2nc3nnnn3nc21: 44.1%
CC(C)N(CCC(=O)c1ccc2ccccc2c1)Cc1ccccc1: 96.5%
Nc1nc(Nc2ccc(S(N)(=O)=O)cc2)nn1C(=S)Nc1c(F)cccc1F: 56.4%
N#CC(c1ccnc(NCCc2cccnc2)n1)c1nc2ccccc2s1 (stereo not shown): 99%
O=C(O)/C=C/c1cc(Br)c(Br)c(Br)c1Br: 105%
CC(C)n1cnc2c(Nc3cccc(Cl)c3)nc(NCCO)nc21: 96.4%
NC(=O)c1cccc(-c2cc(Nc3ccc(OC(F)(F)F)cc3)ncn2)c1: 91.8%
O=C1NC(=O)/C(=C/c2ccc3c(c2)OC(F)(F)O3)S1: 103%
COc1cc2c(N3CCN(C(=O)Nc4ccc(OC(C)C)cc4)CC3)ncnc2cc1OCCCN1CCCCC1: 11.1%
FC(F)(F)c1ccc(/C=C/c2nc(COc3ccc(CCCCn4ccnn4)cc3)co2)cc1: 104%
O=Nc1c(-c2c(O)[nH]c3ccccc23)[nH]c2ccccc12: 90.9%
COc1cc2c(Nc3ccc(Br)cc3F)ncnc2cc1OCC1CCN(C)CC1: 28.6%
O=c1c(-c2ccc(F)cc2)c(-c2ccncc2)[nH]n1-c1ccc(Cl)cc1: 103%
O=C(c1ccccc1)c1ccc(N2CCOCC2)cc1O: 91.9%
CC(C)(C)c1nc2c3cc[nH]c(=O)c3c3cc(F)ccc3c2[nH]1: 92.1%
CNc1cc2c(Nc3cccc(Br)c3)ncnc2cn1: 99%

Study 2 — effect on: cell-free assay; method: competition with immobilised ligand; tested at: 1 µM; endpoint: remaining binding
SMILES: O=C(Nc1cccnn1)N1CC(C/C=C/c2cncc(Oc3ccc(C(F)(F)F)cn3)n2)C1
LATS2 (Homo sapiens, UniProt Q9NRM7): 100%
PAK2 (Homo sapiens, UniProt Q13177): 95%
Tyrosine-protein kinase ABL1, phosphorylated (ABL1, Homo sapiens, UniProt P00519, Q252H): 81%
KIT (Homo sapiens, UniProt P10721, A829P): 59%
EGFR (Homo sapiens, UniProt P00533, L861Q): 100%
Tyrosine-protein kinase ABL1, non-phosphorylated (ABL1, Homo sapiens, UniProt P00519, H396P): 100%
KIT (Homo sapiens, UniProt P10721, T670I/V559D): 100%
NLK (Homo sapiens, UniProt Q9UBE8): 100%
AKT1 (Homo sapiens, UniProt P31749): 100%
RIPK1 (Homo sapiens, UniProt Q13546): 100%
MAP2K7 (Homo sapiens, UniProt O14733): 91%
DCLK3 (Homo sapiens, UniProt Q9C098): 100%
PIK3CA (Homo sapiens, UniProt P42336, H1047Y): 100%
EGFR (Homo sapiens, UniProt P00533, del752-759): 100%
MAP3K14 (Homo sapiens, UniProt Q99558): 77%
CDKL1 (Homo sapiens, UniProt Q00532): 100%
CLK4 (Homo sapiens, UniProt Q9HAZ1): 98%
CSNK1A1 (Homo sapiens, UniProt P48729): 88%
BMX (Homo sapiens, UniProt P51813): 100%
TNIK (Homo sapiens, UniProt Q9UKE5): 92%
HIPK1 (Homo sapiens, UniProt Q86Z02): 88%
Tyrosine-protein kinase ABL1, phosphorylated (ABL1, Homo sapiens, UniProt P00519, M351T): 67%
SBK3 (Homo sapiens, UniProt P0C264): 100%
YES1 (Homo sapiens, UniProt P07947): 100%
TNK1 (Homo sapiens, UniProt Q13470): 100%

Study 3 — action: inhibitor; tested at: 1 µM; endpoint: inhibition
SMILES: C=CC(=O)N1CCC[C@@H](n2nc(-c3ccc(Oc4ccccc4)cc3)c3c(N)ncnc32)C1
DCLK2 (Homo sapiens, UniProt Q8N568); enzyme activity: 3%
HASPIN (Homo sapiens, UniProt Q8TF76); enzyme activity: 33%
ANKK1 (Homo sapiens, UniProt Q8NFD2): 21%
PRKD3 (Homo sapiens, UniProt O94806); enzyme activity: 21%
CSNK1A1L (Homo sapiens, UniProt Q8N752); enzyme activity: 13%
PRKCQ (Homo sapiens, UniProt Q04759): 33%
CSF1R (Homo sapiens, UniProt P07333): 14%
PAK2 (Homo sapiens, UniProt Q13177); enzyme activity: 4%
CDK11B (Homo sapiens, UniProt P21127); enzyme activity: 1%
PIP4K2B (Homo sapiens, UniProt P78356); enzyme activity: 50%
NEK7 (Homo sapiens, UniProt Q8TDX7); enzyme activity: 4%
ACVR1B (Homo sapiens, UniProt P36896); enzyme activity: 11%
MKNK1 (Homo sapiens, UniProt Q9BUB5): 13%
Tyrosine-protein kinase ABL1, non-phosphorylated (ABL1, Homo sapiens, UniProt P00519, F317L): 87%
STK26 (Homo sapiens, UniProt Q9P289): 19%

Study 4 — effect on: enzyme activity; action: inhibitor; tested at: 10 µM; endpoint: inhibition
Target: Calcium/calmodulin-dependent protein kinase type II subunit alpha (CAMK2A, Homo sapiens, UniProt Q9UQM7)
UniProt Q9UQM7, sequence (whole entry, looked up): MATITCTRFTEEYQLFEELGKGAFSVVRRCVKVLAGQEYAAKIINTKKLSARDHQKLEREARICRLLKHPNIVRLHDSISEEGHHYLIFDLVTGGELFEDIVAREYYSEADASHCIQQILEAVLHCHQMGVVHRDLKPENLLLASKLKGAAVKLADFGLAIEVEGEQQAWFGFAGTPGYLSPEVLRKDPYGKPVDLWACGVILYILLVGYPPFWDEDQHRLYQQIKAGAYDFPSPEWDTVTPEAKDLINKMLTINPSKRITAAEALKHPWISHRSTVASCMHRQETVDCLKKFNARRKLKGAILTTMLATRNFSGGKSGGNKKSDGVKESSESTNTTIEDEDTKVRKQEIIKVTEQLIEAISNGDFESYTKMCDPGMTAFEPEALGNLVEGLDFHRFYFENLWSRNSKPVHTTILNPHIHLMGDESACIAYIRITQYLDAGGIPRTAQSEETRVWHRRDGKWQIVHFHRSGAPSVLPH
CC(C)=CCC/C(C)=C/Cc1cc(-c2coc3cc(O)ccc3c2=O)ccc1O: 4%
CC(=O)[C@H]1CC[C@H]2[C@@H]3CCC4=CC(=O)CC[C@]4(C)[C@H]3CC[C@]12C: 8%
NC(CO)C(=O)NNCc1ccc(O)c(O)c1O (stereo not shown): -10%
CS(=O)(=O)n1cc2c(n1)CN([C@H]1CO[C@H](c3cc(F)ccc3F)[C@@H](N)C1)C2: -1%
O=c1cc(-c2ccccc2)c2cc(O)c(O)cc2o1: -62%
CCOC(=O)[C@H](CCc1ccccc1)N[C@@H](C)C(=O)N(CC(=O)O)C1Cc2ccccc2C1: 4%
CCNC(=NCCCC[C@H](NC(=O)[C@H](CC(C)C)NC(=O)[C@@H](CCCCN=C(NCC)NCC)NC(=O)[C@H](Cc1ccc(O)cc1)NC(=O)[C@H](CO)NC(=O)[C@@H](Cc1cccnc1)NC(=O)[C@@H](Cc1ccc(Cl)cc1)NC(=O)[C@@H](Cc1ccc2ccccc2c1)NC(C)=O)C(=O)N1CCC[C@H]1C(=O)N[C@H](C)C(N)=O)NCC: -14%
CC(=O)CC(c1ccc([N+](=O)[O-])cc1)c1c(O)c2ccccc2oc1=O (stereo not shown): 0%
COc1ccc(-c2oc3c(OC)c(OC)c(OC)c(OC)c3c(=O)c2OC)cc1OC: -1%
Nc1ccc2cc3ccc(N)cc3nc2c1: -11%
CC(C)[C@@H]1NC(=O)[C@@H]2CCCN2C(=O)[C@H](C(C)C)NC(=O)CNC(=O)[C@H](C)NC(=O)[C@H](Cc2c[nH]c3ccccc23)NC1=O: 12%
C[C@@H]1C[C@H]2[C@@H]3CCC4=CC(=O)C=C[C@]4(C)[C@@]3(Cl)[C@@H](O)C[C@]2(C)[C@@]1(OC(=O)c1ccco1)C(=O)CCl: 4%
NCCCC(N)(C(=O)O)C(F)F (stereo not shown): -13%

A few entries again (study 1):
NC(=O)c1ccc(-c2nc(-c3ccc4c(c3)OCCO4)c(-c3ccccn3)[nH]2)cc1: 95.8%
CCCCc1c(-c2ccc(O)cc2)[nH]c2nccnc12: 95.1%
C[C@@H](N)[C@H]1CC[C@H](C(=O)Nc2ccncc2)CC1: 87.2%
c1cc(-c2cnn3cc(-c4ccc(OCCN5CCCCC5)cc4)cnc23)ccn1: 3.7%
CCN(CC)CCCCN1c2ccccc2Oc2ccc(Cl)cc21: 102%
Clc1ccc(Nc2nnc(Cc3ccncc3)c3ccccc23)cc1: 33.3%
N#C/C(=C(/N)SC1C=CC=CC1)c1cccc(C(O)c2ccncc2)c1 (stereo not shown): 107%
